Results from different studies.
Numbered parts are unrelated; each lists some results of a single study. Substitutions count along the parent as printed.

Sample 1
Target: CCNF, cyclin fold, Cln2 fusion (human)
Technique: yeast growth competition, sequencing
Sample: yeast
Notes: strong parent motif
Baseline: not given
Direction: higher = stronger binding
Starting sequence: viral docking peptide; TSVRRALFTGGSD
Change | normalised enrichment score
F8W | 6.59
R4A | 6.97
A6C | 8.67
S12L | 8.07
T9S | 8.43
S2V | 7.81
R4L | 1.86
R4S | 6.57
G10N | 8.24
T9I | 8.26
S12N | 8.21
G10F | 8.62
S12D | 8.08
F8M | 2.48
S12P | 8.39
S12H | 8.27
G10I | 8.31

Sample 2
Target: PABPC1L2, full length, GST fusion (mouse, UniProt A0ABA7IW68)
Technique: RNAcompete
Form: RNA
Sample: in vitro
Tested at: 20 nM
Notes: 7-mer, probes averaged, single round
Baseline: mean of 7-mers
Direction: higher = stronger binding
Target sequence (chain): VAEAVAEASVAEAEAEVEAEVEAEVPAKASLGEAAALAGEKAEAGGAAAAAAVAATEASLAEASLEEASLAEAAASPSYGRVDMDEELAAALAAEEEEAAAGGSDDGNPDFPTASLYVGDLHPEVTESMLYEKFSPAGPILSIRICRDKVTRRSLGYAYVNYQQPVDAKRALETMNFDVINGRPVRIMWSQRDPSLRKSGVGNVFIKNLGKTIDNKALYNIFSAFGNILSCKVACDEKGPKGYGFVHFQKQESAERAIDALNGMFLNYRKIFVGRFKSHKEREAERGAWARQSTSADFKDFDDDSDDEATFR
Sequence | 7-mer Z-score
UCCCUCU | -0.32
ACGAAGG | 0.124
CGUUGAG | -0.186
ACCCGAG | -0.0971
CGACUAC | -0.162
CUUUAUG | -0.0283
CCCCCGU | -0.485
ACUAGAG | -0.0772

Sample 3
Target: Prothrombin, mature alpha-thrombin (F2, Homo sapiens, UniProt P00734)
Technique: aptamer microarray, sandwich
Form: DNA with 2'F-ANA
Sample: in vitro
Tested at: 200 nM
Notes: whole 15-mer aptamer, many near background
Added: Cy3 exosite-II aptamer, 400 nM
Direction: higher = stronger binding
Sequence: GGTTGGTGTGGTTGG
Modification | mean fluorescence intensity
2'F-ANA at 7 8 9 11 12 14 15 | 250 a.u.
2'F-ANA at 1 4 5 7 8 12 13 15 | 104 a.u.
2'F-ANA at 1 2 4 6 8 12 13 | 221 a.u.
2'F-ANA at 1 2 3 4 5 7 10 12 13 14 | 45.3 a.u.
2'F-ANA at 2 3 4 5 7 13 | 103 a.u.
2'F-ANA at 1 5 8 10 11 12 13 14 | 49.9 a.u.
2'F-ANA at 1 2 4 5 6 8 9 10 11 15 | 48.2 a.u.
2'F-ANA at 3 4 5 6 8 9 15 | 114 a.u.

Sample 4
Target: Hepatocyte nuclear factor 3-alpha (Foxa1, Mus musculus, UniProt P35582, residues 1-468, full length assumed)
Technique: EMSA with sequencing
Form: double-stranded DNA, one strand shown
Sample: in vitro
Tested at: 10 and 20 nM
Notes: whole designed probe, mean of two concentrations, ends assumed
Baseline: negative control set to 0
Direction: higher = stronger binding
Target sequence (chain): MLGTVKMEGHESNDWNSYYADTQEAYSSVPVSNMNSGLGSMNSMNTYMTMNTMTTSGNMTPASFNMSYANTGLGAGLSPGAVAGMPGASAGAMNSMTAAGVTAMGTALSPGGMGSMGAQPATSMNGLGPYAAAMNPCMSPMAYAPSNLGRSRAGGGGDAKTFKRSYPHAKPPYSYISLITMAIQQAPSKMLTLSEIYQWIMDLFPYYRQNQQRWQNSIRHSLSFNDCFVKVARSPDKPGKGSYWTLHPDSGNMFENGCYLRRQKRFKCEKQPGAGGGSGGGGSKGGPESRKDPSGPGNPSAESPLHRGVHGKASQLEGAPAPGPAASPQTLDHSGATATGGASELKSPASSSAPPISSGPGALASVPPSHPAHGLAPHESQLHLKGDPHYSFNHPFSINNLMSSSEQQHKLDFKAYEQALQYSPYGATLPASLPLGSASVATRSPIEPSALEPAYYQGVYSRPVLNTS
Sequence | normalised bound fraction
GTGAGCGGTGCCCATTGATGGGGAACTAGCAGGTCACTGCCAGTCACGAGGGCAGAGAGACCCAAAGGATCAGAGAACAGCTCTGAGCAGGTCAAGGGCAGTGCCAGAAGGAAAGCCTTTGTTTACAGAGGGAAAGATCCTGCACCTTGAAGTGAGGCATTAAAGAGTAGAGGGGCTTTGCACCTGCATCCTAAGCCTCTTGGTTCACCACTAAGCCGCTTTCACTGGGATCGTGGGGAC | 0.395 ratio
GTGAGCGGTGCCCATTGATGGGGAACAAAGAAAGCAGCTCACTGGGTGAAGGACCTTGAGAAAGAGATGAACATTTCCTCTCTTGAGACACAGGACAAACATGCTCACGCCTGAGCTCGGCAAACAAGGACTTCGGTGCCTGCCTACGGCGCCATTGCGCCCTCTAGTGGCTGCTGAGGAACCGCTGTCCAGCCCGAAGCTCACAGAGCCCCGTTCAGGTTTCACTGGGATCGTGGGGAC | 0.0785 ratio
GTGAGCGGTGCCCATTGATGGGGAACATGTGCTAAAAATACAAGACTTGCTTACGCAGAGAGCCGGGAGCTATGTTCCAGTGAGGGTGGAAACAAAAGCCTCAGTATAAGACTGTCAGGTGTTTACACTTGCTCAAGGGTGTGGTATGTGGCAACACGAGGTTGCTGGACTCCACATGCTGAGGCTCAAAGTAGAAATCACTGATCTTATGTCACATATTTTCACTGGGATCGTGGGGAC | 0.234 ratio
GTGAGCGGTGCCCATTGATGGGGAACATCTTCCCCCTCTTCCTTGCCCCACCAGCTCACCTTCCCGGGTTATTTGCAGATAGGAAAATAAATAAAGCCGGCATTCGTTAACGCAGTTCACGCGCATACTGCTGTTTGCTCTGGATCTAACATGGTCCTTTGGCGAGGCGTGGCTCCGGGAGAGCAAAGCACCGTGTCAGGGCCATGATCCGGGGTGGCCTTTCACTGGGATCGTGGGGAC | 0.352 ratio
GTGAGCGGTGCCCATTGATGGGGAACGTTTCGAGATATGGCATAAACTTTCAAGCTGAGTAAATGGTAGAAAGGTTAGCCAAGTCAACTTGGGGGTCGAATTTTAAGGAAATCTCAAAGTAAACAAGCTAATCTATAGGAAGTGAGAGATAATTTTAGTATTGCTGAACTTTCACATTCTTGTAAATTCCACTGGAGCGCATGGCTTTGCAGGAGCAGTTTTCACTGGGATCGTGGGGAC | 0.231 ratio

For quick reference, copied from above (sample 2):
Sequence | 7-mer Z-score
ACCCGAG | -0.0971
CGACUAC | -0.162
CUUUAUG | -0.0283
